Assay results pooled from the literature.
Numbered parts are unrelated; each lists some results of a single study. Values joined by “and” are separate records of one study, mostly repeats; a detail may differ. Positions count from the first letter of the parent shown.

Set 1
Target: Interferon regulatory factor 5, full length, phosphomimetic (IRF5, Homo sapiens, UniProt Q13568-2, residues 1-514, S451D/S453D/S456D/S462D)
Technique: protein-binding microarray
Form: double-stranded DNA, one strand shown
Matrix: in vitro
Tested at: 940 nM top
Setting: 60-bp whole probe
With: salmon DNA 0.4 mg/ml
Baseline: random background probes
Direction: higher = stronger binding
Shared flanks, not repeated: GCCTAGCAC … GTGCTAGGTCTTGATTCGCTTGACGCTGCTG
| Strand | fitted relative affinity |
| --- | --- |
| CAGCATGCCTGTCCCTGGGT | -0.343 z-score |
| GACGGTCGCGGTCTCGGGAC | 0.473 z-score |
| TTTATTTTTTTTATTTATAA | 1.56 z-score |
| TCATACATGTGTTTAAGACT | -0.352 z-score |
| TCATTTCTGTGTCACAGACT | 0.461 z-score |

Set 2
Target: CCNF, cyclin fold, Cln2 fusion (human)
Technique: yeast growth competition, sequencing
Matrix: yeast
Setting: strong parent motif
Baseline: not given
Direction: higher = stronger binding
Starting sequence: CDKN1A docking peptide (human); SKACRRLFGPVDS; partner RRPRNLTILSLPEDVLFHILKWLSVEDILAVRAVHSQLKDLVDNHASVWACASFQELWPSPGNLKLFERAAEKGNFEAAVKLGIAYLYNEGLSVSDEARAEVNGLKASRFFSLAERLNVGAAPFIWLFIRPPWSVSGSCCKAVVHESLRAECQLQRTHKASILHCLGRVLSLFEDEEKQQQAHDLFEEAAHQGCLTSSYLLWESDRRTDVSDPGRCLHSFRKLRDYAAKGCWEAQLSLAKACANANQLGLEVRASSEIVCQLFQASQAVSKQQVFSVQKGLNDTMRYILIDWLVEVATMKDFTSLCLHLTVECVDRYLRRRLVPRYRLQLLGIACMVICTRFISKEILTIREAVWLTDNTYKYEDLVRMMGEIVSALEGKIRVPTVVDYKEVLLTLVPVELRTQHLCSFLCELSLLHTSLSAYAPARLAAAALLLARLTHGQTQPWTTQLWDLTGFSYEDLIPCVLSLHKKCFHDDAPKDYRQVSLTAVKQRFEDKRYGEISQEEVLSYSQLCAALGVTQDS
| Change | normalised enrichment score |
| --- | --- |
| G9L | 7.94 |
| D12C | 7.06 |
| C4V | 6.99 |
| R5Q | 0.592 |
| A3C | 7.76 |
| C4E | 0.705 |
| C4A | 6.12 |

Set 3
Target: Sal-like protein 4, full length isoform B (SALL4, Homo sapiens, UniProt Q9UJQ4-2, residues 1-616)
Technique: universal PBM
Form: double-stranded DNA, one strand shown
Matrix: in vitro
Tested at: not given
Setting: 8-mer, flanks averaged, mean of replicates
Direction: higher = stronger binding
| Strand | E-score |
| --- | --- |
| GTGATGAA | 0.0822 |
| ATGCGTAC | 0.208 |
| GTGTCTGA | -0.0623 |
| GACGTTCC | -0.133 |

Single results of other studies
| Substance | target | assay | test system | setting | scale | measurement | result |
| --- | --- | --- | --- | --- | --- | --- | --- |
| PhoQ, residues 284 288 289 292 302 303 TNASYF | PhoP, residues 12 14 15 18 19 LWHCS (Escherichia coli, UniProt P23836) | Sort-seq, measured: YFP reporter | E. coli | PhoQ-PhoP variant library, with: 10 µM Mg2+ | baseline: high Mg2+ state, higher = stronger signaling | fold induction | 9.26 and 7.93 |

A few entries again (set 2):
| Change | normalised enrichment score |
| --- | --- |
| D12C | 7.06 |
| A3C | 7.76 |
